Experimental data collected from several papers.
Parts stem from different laboratories: compare values within a part only. Substitutions count along the parent as printed.
UniProt O15294, sequence (whole entry, looked up): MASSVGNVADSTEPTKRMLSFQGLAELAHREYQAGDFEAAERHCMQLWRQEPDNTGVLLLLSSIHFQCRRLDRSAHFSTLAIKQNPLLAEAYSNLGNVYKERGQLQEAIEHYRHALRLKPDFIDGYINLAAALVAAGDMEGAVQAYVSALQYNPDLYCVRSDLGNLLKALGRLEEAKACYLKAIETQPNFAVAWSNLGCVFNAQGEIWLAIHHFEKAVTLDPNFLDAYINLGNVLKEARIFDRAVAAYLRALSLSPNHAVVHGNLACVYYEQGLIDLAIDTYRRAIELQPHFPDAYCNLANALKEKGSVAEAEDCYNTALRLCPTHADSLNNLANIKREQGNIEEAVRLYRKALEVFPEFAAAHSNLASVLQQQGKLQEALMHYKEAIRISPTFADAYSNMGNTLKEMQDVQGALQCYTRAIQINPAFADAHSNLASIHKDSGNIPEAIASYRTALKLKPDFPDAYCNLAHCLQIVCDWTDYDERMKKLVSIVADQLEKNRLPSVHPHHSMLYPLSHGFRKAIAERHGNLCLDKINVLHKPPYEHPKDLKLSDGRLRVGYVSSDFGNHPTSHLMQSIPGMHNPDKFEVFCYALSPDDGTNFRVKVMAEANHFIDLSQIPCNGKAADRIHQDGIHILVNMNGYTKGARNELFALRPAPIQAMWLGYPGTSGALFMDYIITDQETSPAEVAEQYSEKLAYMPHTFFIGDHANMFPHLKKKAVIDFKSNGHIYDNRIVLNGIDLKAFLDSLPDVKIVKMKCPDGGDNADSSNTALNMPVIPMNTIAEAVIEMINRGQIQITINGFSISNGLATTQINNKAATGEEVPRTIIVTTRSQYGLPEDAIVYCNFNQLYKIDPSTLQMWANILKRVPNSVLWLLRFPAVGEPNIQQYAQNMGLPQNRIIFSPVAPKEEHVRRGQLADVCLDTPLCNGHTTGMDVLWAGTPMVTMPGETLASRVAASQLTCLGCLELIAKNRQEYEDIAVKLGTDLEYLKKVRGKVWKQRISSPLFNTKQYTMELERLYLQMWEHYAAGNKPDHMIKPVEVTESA

Block 1
Target: BATF2, bZIP domain (human)
Technique: DHFR protein complementation
Medium: yeast
Notes: single substitutions, most at no-binding floor
Baseline: wild-type JUN-FOS pair
Direction: higher = stronger binding
Endpoint: binding fitness
Parent: JUN, bZIP domain (human); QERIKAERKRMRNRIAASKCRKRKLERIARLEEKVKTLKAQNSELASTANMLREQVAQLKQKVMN; partner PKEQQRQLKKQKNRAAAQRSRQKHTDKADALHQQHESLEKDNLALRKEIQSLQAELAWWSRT
L38K: -1.21 natural log
T37I: -0.202 natural log
I28C: -0.561 natural log
L31R: -1.38 natural log
A49S: -1.02 natural log
L45W: -1.3 natural log
E33K: -0.601 natural log
E54D: -0.497 natural log

Block 2
Target: Sal-like protein 4, full length isoform A (SALL4, Homo sapiens, UniProt Q9UJQ4, residues 1-1053)
UniProt Q9UJQ4, sequence (whole entry, looked up): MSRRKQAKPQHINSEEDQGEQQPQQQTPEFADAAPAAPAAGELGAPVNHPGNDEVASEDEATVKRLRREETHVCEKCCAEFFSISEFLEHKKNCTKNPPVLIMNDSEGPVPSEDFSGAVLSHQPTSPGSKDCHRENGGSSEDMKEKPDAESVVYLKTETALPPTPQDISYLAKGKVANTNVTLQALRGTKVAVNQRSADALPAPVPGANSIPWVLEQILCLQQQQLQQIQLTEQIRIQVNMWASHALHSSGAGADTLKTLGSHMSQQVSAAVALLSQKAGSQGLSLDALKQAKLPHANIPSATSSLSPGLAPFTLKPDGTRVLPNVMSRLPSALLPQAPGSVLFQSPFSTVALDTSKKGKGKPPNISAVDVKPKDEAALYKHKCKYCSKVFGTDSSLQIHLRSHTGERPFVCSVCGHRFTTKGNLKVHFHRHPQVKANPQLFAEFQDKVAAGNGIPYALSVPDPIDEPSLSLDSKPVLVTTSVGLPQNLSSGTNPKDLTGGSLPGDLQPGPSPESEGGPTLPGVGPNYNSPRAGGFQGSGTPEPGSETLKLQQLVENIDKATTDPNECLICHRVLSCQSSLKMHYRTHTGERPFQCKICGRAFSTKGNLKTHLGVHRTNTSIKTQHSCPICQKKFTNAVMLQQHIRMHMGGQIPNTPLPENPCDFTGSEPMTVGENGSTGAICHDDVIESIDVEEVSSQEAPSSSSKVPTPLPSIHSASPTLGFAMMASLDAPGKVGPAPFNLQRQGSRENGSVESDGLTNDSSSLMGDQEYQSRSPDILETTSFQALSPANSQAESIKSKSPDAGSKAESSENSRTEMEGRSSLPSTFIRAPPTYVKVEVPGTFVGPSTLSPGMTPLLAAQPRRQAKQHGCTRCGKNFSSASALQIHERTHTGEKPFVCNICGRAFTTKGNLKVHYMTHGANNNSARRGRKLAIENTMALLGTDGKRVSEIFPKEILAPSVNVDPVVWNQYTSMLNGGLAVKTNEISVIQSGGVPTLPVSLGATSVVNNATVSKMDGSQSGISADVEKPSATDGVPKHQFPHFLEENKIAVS
Technique: universal PBM
Form: double-stranded DNA, one strand shown
Medium: in vitro
Concentration: 600 nM
Notes: 8-mer, flanks averaged, mean of replicates
Direction: higher = stronger binding
Endpoint: E-score
AAGGAAGT: 0.0538
AGGTCGCG: -0.305
ACATAAGG: 0.186
GCAGGCCC: -0.399
CTTTTATC: 0.12
GGTAGCAC: -0.295
GTATCGCA: 0.0163
CATTAATA: 0.394

Block 3
Molecule: H2AC7 (Homo sapiens, UniProt P20671)
Technique: cross-linking MS
Notes: hits only
Endpoint: interaction screen
H2BC20P (Homo sapiens, UniProt Q6DN03): cross-linked
H2BC3 (Homo sapiens, UniProt P33778): cross-linked
H3-7 (Homo sapiens, UniProt Q5TEC6): cross-linked

Other studies, line by line
QHHWMHHEWQAHQPH  enrichment fold change (UDP-N-acetylglucosamine--peptide N-acetylglucosaminyltransferase 110 kDa subunit (OGT, Homo sapiens, UniProt O15294); binding, phage display NGS; peptide; concentration not given; baseline: input library): 3.04

Some of these lines once more (block 3):
H2BC3 (Homo sapiens, UniProt P33778): cross-linked
H2BC20P (Homo sapiens, UniProt Q6DN03): cross-linked
H3-7 (Homo sapiens, UniProt Q5TEC6): cross-linked
